# Assay results of several laboratories.
# Every numbered part comes from another study and shows a few of its results, in no order. Substitutions count along the parent as printed.

# Block 1
# Target: ABI1, truncated, D143A, DHFR fusion (Arabidopsis thaliana)
# Technique: DHFR PCA, deep sequencing
# Medium: yeast
# Notes: methotrexate growth selection, single substitutions
# With: (+)-ABA 0 µM
# Reference: wild-type fitted maximum
# Direction: higher = stronger binding
# Parent: PYL1, truncated, DHFR fusion (Arabidopsis thaliana); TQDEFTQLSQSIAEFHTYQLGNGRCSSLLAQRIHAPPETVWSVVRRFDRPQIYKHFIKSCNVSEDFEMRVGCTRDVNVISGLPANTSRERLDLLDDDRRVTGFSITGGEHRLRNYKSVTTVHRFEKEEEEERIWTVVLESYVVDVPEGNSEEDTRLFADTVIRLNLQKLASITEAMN
Variant,relative binding score [%]
Q167F,-6.23
N85W,44.6
T119C,-3.02
E128Q,23.4
T1I,30.3
E38M,4.79
R74F,0.937
P37A,19.7
R99K,40.2
E4L,24.1
L169Q,5.68
P36R,10.7
Q2F,73.8

# Block 2
# Target: Prothrombin, mature alpha-thrombin (F2, Homo sapiens, UniProt P00734)
# Technique: aptamer microarray, sandwich
# Form: DNA with 2'F-ANA
# Medium: in vitro
# Tested at: 200 nM
# Notes: whole 15-mer aptamer, many near background
# With: Cy3 exosite-II aptamer, 400 nM
# Direction: higher = stronger binding
# Oligonucleotide: GGTTGGTGTGGTTGG
Modification,mean fluorescence intensity
2'F-ANA at 2 3 5 7 10 11 12 13 14,48.1 a.u.
2'F-ANA at 3 7 12 13 14 15,670 a.u.
2'F-ANA at 1 5 6 7 8 9 10 12 13 14 15,90.3 a.u.
2'F-ANA at 2 3 7 8 10 13 14 15,286 a.u.
2'F-ANA at 2 3 4 6 8 11,515 a.u.
2'F-ANA at 2 4 5 6 8,72.4 a.u.
2'F-ANA at 1 2 4 6 7 8 11 13,87.4 a.u.
2'F-ANA at 1 2 9 12 13 15,348 a.u.
2'F-ANA at 4 5 6 8 10 15,44 a.u.
2'F-ANA at 1 2 4 5 7 8 10,53.9 a.u.
2'F-ANA at 1 5 10 11 12 13 14,49.8 a.u.
2'F-ANA at 4 9 10 13,73.5 a.u.
2'F-ANA at 1 6 7 9 11 14 15,53.3 a.u.
2'F-ANA at 3 4 5 7 8 9 12 13 14 15,52.8 a.u.
2'F-ANA at 3 5 6 8 9 10 11,54.5 a.u.
2'F-ANA at 1 3 13 14 15,85.8 a.u.
2'F-ANA at 3 4 7 8 10 11 13 14,188 a.u.
2'F-ANA at 3 4 6 8 9 10 14 15,198 a.u.
2'F-ANA at 1 3 11 13,303 a.u.
2'F-ANA at 1 3 8 10 11 14,70.6 a.u.
2'F-ANA at 1 4 5 8 10 13 15,46.1 a.u.
2'F-ANA at 1 2 5 7 8 9 11 12 13,71.7 a.u.

# Block 3
# Target: Sal-like protein 4, full length isoform A (SALL4, Homo sapiens, UniProt Q9UJQ4, residues 1-1053)
# Sequence of UniProt Q9UJQ4 (whole entry, looked up): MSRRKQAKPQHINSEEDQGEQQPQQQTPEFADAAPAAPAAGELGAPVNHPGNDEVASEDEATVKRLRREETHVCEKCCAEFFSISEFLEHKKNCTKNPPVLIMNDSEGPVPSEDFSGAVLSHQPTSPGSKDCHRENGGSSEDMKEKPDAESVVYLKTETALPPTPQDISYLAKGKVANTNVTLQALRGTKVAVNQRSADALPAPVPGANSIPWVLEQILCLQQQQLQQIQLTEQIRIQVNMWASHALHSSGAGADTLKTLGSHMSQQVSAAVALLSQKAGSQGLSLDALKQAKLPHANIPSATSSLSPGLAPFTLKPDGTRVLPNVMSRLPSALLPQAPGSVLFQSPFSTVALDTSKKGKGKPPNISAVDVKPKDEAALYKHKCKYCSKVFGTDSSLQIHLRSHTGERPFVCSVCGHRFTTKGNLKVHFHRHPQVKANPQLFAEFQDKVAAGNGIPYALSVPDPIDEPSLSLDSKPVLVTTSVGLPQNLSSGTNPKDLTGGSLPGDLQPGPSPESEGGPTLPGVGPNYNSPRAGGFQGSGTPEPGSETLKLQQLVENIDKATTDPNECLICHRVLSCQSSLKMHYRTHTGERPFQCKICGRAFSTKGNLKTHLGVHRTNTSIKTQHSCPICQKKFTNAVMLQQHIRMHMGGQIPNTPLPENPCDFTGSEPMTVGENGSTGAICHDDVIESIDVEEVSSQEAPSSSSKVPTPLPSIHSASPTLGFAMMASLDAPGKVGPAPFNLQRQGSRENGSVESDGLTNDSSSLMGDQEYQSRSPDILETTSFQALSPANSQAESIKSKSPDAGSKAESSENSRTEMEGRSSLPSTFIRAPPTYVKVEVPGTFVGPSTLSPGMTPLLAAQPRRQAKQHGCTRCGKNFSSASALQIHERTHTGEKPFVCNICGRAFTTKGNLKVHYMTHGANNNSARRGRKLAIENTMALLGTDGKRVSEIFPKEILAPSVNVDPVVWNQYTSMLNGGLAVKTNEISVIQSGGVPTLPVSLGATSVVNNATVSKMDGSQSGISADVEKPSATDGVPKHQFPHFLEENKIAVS
# Technique: universal PBM
# Form: double-stranded DNA, one strand shown
# Medium: in vitro
# Tested at: 600 nM
# Notes: 8-mer, flanks averaged, mean of replicates
# Direction: higher = stronger binding
Oligonucleotide,E-score
GCTCGCCA,-0.254
GGCGAGAA,-0.111
GCATTAGA,0.134
AAGTAGTA,0.214
TCCAAACA,0.0611
CGCCGTCC,-0.263
CCGCGGGA,-0.29
TCGGATCA,0.133
CATCCAAC,0.0063
AGTCACTC,-0.085
ATCATTGA,0.249
CGTTTTAC,0.0745
AGGATTAT,0.261
CCAAGCTA,-0.164
CTGTGAGA,-0.0467
GTTTTGTA,0.216
AATCAGAC,0.0742
AAAGTACA,0.233
GACATAGC,0.106
AGACACAC,-0.157
GATGGAGC,-0.166
ACGGACTG,-0.11
AATGGGAA,0.0908

# Block 4
# Target: CCND1, cyclin fold, Cln2 fusion (human)
# Technique: yeast growth competition, sequencing
# Medium: yeast
# Notes: strong parent motif
# Reference: not given
# Direction: higher = stronger binding
# Parent: SCAPER docking peptide (human); SNARRSLNFGGST
Variant,normalised enrichment score
ENARRSLNFGGST [S1E],-0.134
SNKRRSLNFGGST [A3K],0.375
SNARRSLNRGGST [F9R],-0.00943
SNAERSLNFGGST [R4E],0.152
SNARCSLNFGGST [R5C],0.305
SNARRSLNFGGSV [T13V],1.31
SNARRCLNFGGST [S6C],2.76
SNARRSLNFVGST [G10V],-0.44
SNARRSLNHGGST [F9H],-0.159
SNARRSLNFGTST [G11T],1.42
SNARRSKNFGGST [L7K],0.239
SNANRSLNFGGST [R4N],0.639
SNARRSLNDGGST [F9D],0.101
SNARRSENFGGST [L7E],-0.11
SNARRSLNFSGST [G10S],0.424
SNARRSLNFGGSK [T13K],0.906
SNARRSLNFGGWT [S12W],0.233
SNARRGLNFGGST [S6G],0.608
SNARASLNFGGST [R5A],-0.154
SSARRSLNFGGST [N2S],1.42
SNARRSLNFGGSH [T13H],0.555
SVARRSLNFGGST [N2V],0.72
SNARRSWNFGGST [L7W],-0.124
SNARRSLNFQGST [G10Q],0.605
SNARRSLNFGGIT [S12I],1.23

# Block 5
# Target: CRIPT, C-terminal peptide
# Technique: DHFR complementation, deep sequencing
# Medium: yeast
# Notes: single substitutions, model-inferred values
# Reference: wild type
# Direction: higher = weaker binding
# Parent: ERBIN, PDZ domain 1 (human); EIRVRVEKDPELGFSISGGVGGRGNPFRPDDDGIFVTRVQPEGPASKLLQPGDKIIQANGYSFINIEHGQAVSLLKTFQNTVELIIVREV; partner TKNYKQTSV
Variant,binding free energy change
G33F,5.02 kJ/mol
I86H,2.93 kJ/mol
A45Y,6.06 kJ/mol
F27K,5.08 kJ/mol
E7H,-0.158 kJ/mol
R38E,-0.194 kJ/mol
G19I,7.26 kJ/mol
Q50L,0.0141 kJ/mol
F27R,4.77 kJ/mol
N65E,0.0505 kJ/mol
G52W,3.78 kJ/mol
A71E,2.62 kJ/mol
Q57I,0.43 kJ/mol
K47A,0.0996 kJ/mol
R23C,-2.2 kJ/mol
D31M,4.53 kJ/mol
I56E,0.805 kJ/mol
Q40E,0.519 kJ/mol
F63T,1.17 kJ/mol
E83H,1.18 kJ/mol
P10N,-1.56 kJ/mol
I56L,0.574 kJ/mol
L75S,3.44 kJ/mol

# Block 6
# Target: FOSB, bZIP domain (human)
# Technique: DHFR protein complementation
# Medium: yeast
# Notes: single substitutions, most at no-binding floor
# Reference: wild-type JUN-FOS pair
# Direction: higher = stronger binding
# Parent: JUN, bZIP domain (human); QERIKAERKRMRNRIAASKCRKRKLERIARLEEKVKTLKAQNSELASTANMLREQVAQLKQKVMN; partner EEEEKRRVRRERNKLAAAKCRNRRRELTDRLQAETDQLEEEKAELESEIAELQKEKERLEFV
Variant,binding fitness
I28F,-0.296 natural log
E44S,-0.15 natural log
A49H,-0.704 natural log
A29Q,-0.333 natural log
Q55W,-0.629 natural log
A49F,-0.823 natural log
A46R,0.0662 natural log
M51N,-0.0691 natural log
V56P,-0.954 natural log
I28W,-0.153 natural log
N42K,-0.152 natural log
I28M,-0.165 natural log
K36I,-0.121 natural log
A49Q,-0.906 natural log
V56N,-0.925 natural log
R53W,-0.997 natural log

# Mixed results
Substance,target,assay,system,conditions,how to read,measurement,value
"PhoQ, residues 284 288 289 292 302 303 ALSMDL","PhoP, residues 12 14 15 18 19 HEGLL (Escherichia coli, UniProt P23836)","Sort-seq, item: YFP reporter",E. coli,"PhoQ-PhoP variant library, with: 10 µM Mg2+","reference: high Mg2+ state, higher = stronger signaling",fold induction,6.28

# For quick reference, copied from above (block 1):
Variant,relative binding score [%]
N85W,44.6
R99K,40.2
Q167F,-6.23
E128Q,23.4
P36R,10.7
L169Q,5.68
Q2F,73.8
T119C,-3.02
E4L,24.1
P37A,19.7
E38M,4.79
R74F,0.937
T1I,30.3
